Published values from different studies.
A part holds a random share of what one study measured. Values joined by “and” are separate records of one study, mostly repeats; a detail may differ.

Series 1 — effect on: enzyme activity; action: inhibitor; tested at: 0.5 µM; reference: control
Target: Serine/threonine-protein kinase WNK2 (WNK2, Homo sapiens, UniProt Q9Y3S1)
Sequence of UniProt Q9Y3S1 (whole entry, looked up): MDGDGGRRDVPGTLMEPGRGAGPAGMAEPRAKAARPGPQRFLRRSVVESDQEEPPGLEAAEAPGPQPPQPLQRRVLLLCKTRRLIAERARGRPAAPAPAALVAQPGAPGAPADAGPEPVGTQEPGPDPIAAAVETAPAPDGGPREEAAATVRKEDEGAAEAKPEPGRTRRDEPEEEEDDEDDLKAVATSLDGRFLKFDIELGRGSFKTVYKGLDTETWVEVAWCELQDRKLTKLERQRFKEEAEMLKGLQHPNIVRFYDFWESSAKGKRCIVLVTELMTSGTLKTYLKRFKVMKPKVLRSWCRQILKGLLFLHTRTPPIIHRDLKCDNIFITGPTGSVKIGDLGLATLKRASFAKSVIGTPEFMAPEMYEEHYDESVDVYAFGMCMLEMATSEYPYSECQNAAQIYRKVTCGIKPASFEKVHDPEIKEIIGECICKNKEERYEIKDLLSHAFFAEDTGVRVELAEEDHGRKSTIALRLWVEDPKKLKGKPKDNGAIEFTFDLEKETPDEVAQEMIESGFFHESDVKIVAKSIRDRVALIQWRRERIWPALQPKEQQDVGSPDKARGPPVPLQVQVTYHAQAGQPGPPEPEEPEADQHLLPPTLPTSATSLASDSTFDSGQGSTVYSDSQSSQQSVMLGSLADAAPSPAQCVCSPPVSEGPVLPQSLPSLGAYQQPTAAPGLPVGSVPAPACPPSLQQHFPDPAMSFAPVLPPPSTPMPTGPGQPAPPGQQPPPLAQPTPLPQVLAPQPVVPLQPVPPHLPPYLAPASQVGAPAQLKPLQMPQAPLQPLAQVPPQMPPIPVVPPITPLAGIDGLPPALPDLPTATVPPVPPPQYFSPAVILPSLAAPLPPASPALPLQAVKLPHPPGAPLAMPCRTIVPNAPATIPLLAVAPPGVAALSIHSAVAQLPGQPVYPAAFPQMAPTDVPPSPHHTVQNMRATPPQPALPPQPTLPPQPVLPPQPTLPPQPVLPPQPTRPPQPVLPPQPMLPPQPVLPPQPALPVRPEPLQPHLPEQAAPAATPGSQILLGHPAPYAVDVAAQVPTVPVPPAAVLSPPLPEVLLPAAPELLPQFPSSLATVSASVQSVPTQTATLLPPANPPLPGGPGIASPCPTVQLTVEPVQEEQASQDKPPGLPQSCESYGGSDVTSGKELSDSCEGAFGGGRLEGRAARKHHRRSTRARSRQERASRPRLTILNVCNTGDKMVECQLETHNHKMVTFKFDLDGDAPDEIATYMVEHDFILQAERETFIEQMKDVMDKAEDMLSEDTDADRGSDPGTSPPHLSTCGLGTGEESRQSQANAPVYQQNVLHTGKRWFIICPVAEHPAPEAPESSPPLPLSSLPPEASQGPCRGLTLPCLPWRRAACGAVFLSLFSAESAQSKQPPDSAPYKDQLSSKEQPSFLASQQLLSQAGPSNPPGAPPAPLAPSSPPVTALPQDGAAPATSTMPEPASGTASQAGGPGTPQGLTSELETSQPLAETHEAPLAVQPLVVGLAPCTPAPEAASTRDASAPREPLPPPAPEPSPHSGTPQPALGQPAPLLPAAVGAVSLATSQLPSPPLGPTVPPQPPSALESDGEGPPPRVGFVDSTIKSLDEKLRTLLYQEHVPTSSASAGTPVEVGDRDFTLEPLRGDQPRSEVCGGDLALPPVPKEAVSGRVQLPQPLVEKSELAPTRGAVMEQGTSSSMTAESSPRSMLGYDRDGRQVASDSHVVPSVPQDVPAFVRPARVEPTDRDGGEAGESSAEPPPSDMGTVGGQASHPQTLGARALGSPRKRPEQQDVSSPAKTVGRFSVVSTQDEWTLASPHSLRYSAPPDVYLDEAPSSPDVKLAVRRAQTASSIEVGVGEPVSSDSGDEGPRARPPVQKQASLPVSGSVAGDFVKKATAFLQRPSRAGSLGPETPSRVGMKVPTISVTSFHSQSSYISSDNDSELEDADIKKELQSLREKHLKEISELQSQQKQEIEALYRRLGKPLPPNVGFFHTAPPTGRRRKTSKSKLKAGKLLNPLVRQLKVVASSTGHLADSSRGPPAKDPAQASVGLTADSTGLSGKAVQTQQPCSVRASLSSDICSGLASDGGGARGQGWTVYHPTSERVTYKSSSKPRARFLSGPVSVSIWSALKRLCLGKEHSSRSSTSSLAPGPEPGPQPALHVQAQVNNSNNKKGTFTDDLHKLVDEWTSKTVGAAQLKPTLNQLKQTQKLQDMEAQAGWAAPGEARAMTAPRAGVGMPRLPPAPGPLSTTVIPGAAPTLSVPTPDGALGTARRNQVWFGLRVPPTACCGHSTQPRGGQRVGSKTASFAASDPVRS
`COc1cc2c(Nc3ccc(Br)cc3F)ncnc2cc1OCC1CCN(C)CC1` gave a remaining activity of 100%.
For `Clc1ccc(Nc2nnc(Cc3ccncc3)c3ccccc23)cc1`, the remaining activity was 96.3%.
`O=Nc1c(-c2c(O)[nH]c3ccccc23)[nH]c2ccccc12` gave a remaining activity of 99.8%.
The remaining activity of `COc1cc2c(N3CCN(C(=O)Nc4ccc(OC(C)C)cc4)CC3)ncnc2cc1OCCCN1CCCCC1` is reported as 97.4%.
For `N#CC(c1ccnc(NCCc2cccnc2)n1)c1nc2ccccc2s1` (stereo not shown), the remaining activity was 106%.
For `O=c1c(-c2ccc(F)cc2)c(-c2ccncc2)[nH]n1-c1ccc(Cl)cc1`, the remaining activity was 112%.
`CNc1cc2c(Nc3cccc(Br)c3)ncnc2cn1` gave a remaining activity of 114%.
`c1cc(-c2cnn3cc(-c4ccc(OCCN5CCCCC5)cc4)cnc23)ccn1` has a remaining activity of 120%.
`CCCCc1c(-c2ccc(O)cc2)[nH]c2nccnc12` gave a remaining activity of 117%.
`Nc1nc(Nc2ccc(S(N)(=O)=O)cc2)nn1C(=S)Nc1c(F)cccc1F` gave a remaining activity of 97.9%.
With `C[C@@H](N)[C@H]1CC[C@H](C(=O)Nc2ccncc2)CC1` the remaining activity was 103%.
`O=C1c2ccccc2-c2nc3nnnn3nc21` has a remaining activity of 143%.
The remaining activity of `O=C(O)/C=C/c1cc(Br)c(Br)c(Br)c1Br` is reported as 93%.
For `N#C/C(=C(/N)SC1C=CC=CC1)c1cccc(C(O)c2ccncc2)c1` (stereo not shown), the remaining activity was 110%.

Series 2 — effect on: RNA clamping; method: fluorescence polarization; tested at: concentration not given; setting: mean of two replicates; with: FAM-labelled poly r(AG)8 RNA
Target: Eukaryotic initiation factor 4A-III (Homo sapiens, UniProt P38919)
For `COC(=O)[C@H]1C(=O)[C@@]2(NCC3CCOCC3)c3c(OC)cc(OC)cc3O[C@@]2(c2ccc(OC)cc2)[C@@H]1c1ccccc1`, “fluorescence polarization change” read -2.6 mP.
`COC(=O)[C@@H]1[C@@H](O)[C@@]2(O)c3c(OC)cc(F)cc3O[C@@]2(c2ccc(Cl)cc2)[C@H]1c1ccccc1`: “fluorescence polarization change” 13.2 mP.
`COC(=O)[C@@H]1[C@@H](c2ccccc2)[C@]2(c3ccc(OC)cc3)Oc3cc(OC)cc(OC)c3[C@@]23NC(c2cccnc2)=N[C@@]13O` — result for “fluorescence polarization change”: 27.4 mP.
Under “fluorescence polarization change”, `COc1ccc([C@]23Oc4cc(OC)cc(OC)c4[C@](O)([C@H](C(=O)NCCCC(OC)OC)[C@H]2c2ccccc2)[C@@H]3O)cc1` is recorded as 0 mP.
`COc1ccc([C@@]23Oc4cc(OC)cc(OC)c4[C@]2(O)[C@H](O)[C@H](C(=O)NCCCC(OC)OC)[C@H]3c2ccccc2)cc1` — result for “fluorescence polarization change”: 43.5 mP.
Under “fluorescence polarization change”, `COc1ccc([C@]23Oc4cc(OC)cc(OC)c4[C@@]2(O)c2nc(-c4ccc(C)cc4)[nH]c(=O)c2[C@@H]3c2ccccc2)cc1` is recorded as 21.8 mP.
For `C#CCCC(=O)O[C@@H]1[C@H](C(=O)c2ccco2)[C@@H](c2ccccc2)[C@]2(c3ccc(OC)cc3)Oc3cc(OC)cc(OC)c3[C@]12O`, “fluorescence polarization change” read 6.2 mP.
`COc1ccc([C@@]23Oc4cc(OC)cc(OC)c4[C@]2(O)c2nc(-c4cccc(OC)c4)[nH]c(=O)c2[C@H]3c2ccccc2)cc1`: “fluorescence polarization change” 27.6 mP and 9.3 mP.

Series 3 — tested at: 1 µM
SMILES: CNCc1ccccc1-c1csc([C@@H](C)Nc2nc(C)nc3cc(OC)c(OC)cc23)c1
For Ribosomal protein S6 kinase alpha-2, C-terminal kinase domain (RPS6KA2, Homo sapiens, UniProt Q15349); cell-free assay, competition with immobilised ligand: remaining binding read 100%.
For PKMYT1 (Homo sapiens, UniProt Q99640); cell-free assay, competition with immobilised ligand: remaining binding read 93%.
It gave 83% for remaining binding (BMPR1B (Homo sapiens, UniProt O00238); cell-free assay, competition with immobilised ligand).
For MAP3K13 (Homo sapiens, UniProt O43283); cell-free assay, competition with immobilised ligand: remaining binding read 80%.
The remaining binding was 96% (PRPF4B (Homo sapiens, UniProt Q13523); cell-free assay, competition with immobilised ligand).
The remaining binding was 88% (MAPKAPK5 (Homo sapiens, UniProt Q8IW41); cell-free assay, competition with immobilised ligand).
ACVR2A (Homo sapiens, UniProt P27037); cell-free assay, competition with immobilised ligand — remaining binding: 94%.
It gave 76% for remaining binding (ANKK1 (Homo sapiens, UniProt Q8NFD2); cell-free assay, competition with immobilised ligand).
For ALK (Homo sapiens, UniProt Q9UM73); cell-free assay, competition with immobilised ligand: remaining binding read 79%.
For MTOR (Homo sapiens, UniProt P42345); cell-free assay, competition with immobilised ligand: remaining binding read 100%.
The remaining binding was 90% (GSK3B (Homo sapiens, UniProt P49841); cell-free assay, competition with immobilised ligand).
The remaining binding was 79% (FLT3 (Homo sapiens, UniProt P36888, R834Q); cell-free assay, competition with immobilised ligand).
CDK19 (Homo sapiens, UniProt Q9BWU1); competition binding — remaining binding: 85%.
The remaining binding was 77% (FLT3 (Homo sapiens, UniProt P36888, N841I); cell-free assay, competition with immobilised ligand).
The remaining binding was 91% (STK35 (Homo sapiens, UniProt Q8TDR2); cell-free assay, competition with immobilised ligand).
RET (Homo sapiens, UniProt P07949); cell-free assay, competition with immobilised ligand — remaining binding: 86%.
The remaining binding was 82% (EGFR (Homo sapiens, UniProt P00533, L858R); cell-free assay, competition with immobilised ligand).
The remaining binding was 92% (COQ8A (Homo sapiens, UniProt Q8NI60); cell-free assay, competition with immobilised ligand).
For MAP2K7 (Homo sapiens, UniProt O14733); cell-free assay, competition with immobilised ligand: remaining binding read 79%.
It gave 72% for remaining binding (WNK2 (Homo sapiens, UniProt Q9Y3S1); cell-free assay, competition with immobilised ligand).
IKBKE (Homo sapiens, UniProt Q14164); cell-free assay, competition with immobilised ligand — remaining binding: 71%.
It gave 96% for remaining binding (STK11 (Homo sapiens, UniProt Q15831); cell-free assay, competition with immobilised ligand).
The remaining binding was 84% (PDGFRA (Homo sapiens, UniProt P16234); cell-free assay, competition with immobilised ligand).
The remaining binding was 94% (RIOK3 (Homo sapiens, UniProt O14730); cell-free assay, competition with immobilised ligand).
For DYRK1B (Homo sapiens, UniProt Q9Y463); cell-free assay, competition with immobilised ligand: remaining binding read 64%.

Series 4 — effect on: enzyme activity; action: inhibitor; tested at: 77 µM; reference: untreated
Target: DNA polymerase theta, ATPase domain (POLQ, Homo sapiens, UniProt O75417)
Sequence of UniProt O75417 (whole entry, unmodified, looked up): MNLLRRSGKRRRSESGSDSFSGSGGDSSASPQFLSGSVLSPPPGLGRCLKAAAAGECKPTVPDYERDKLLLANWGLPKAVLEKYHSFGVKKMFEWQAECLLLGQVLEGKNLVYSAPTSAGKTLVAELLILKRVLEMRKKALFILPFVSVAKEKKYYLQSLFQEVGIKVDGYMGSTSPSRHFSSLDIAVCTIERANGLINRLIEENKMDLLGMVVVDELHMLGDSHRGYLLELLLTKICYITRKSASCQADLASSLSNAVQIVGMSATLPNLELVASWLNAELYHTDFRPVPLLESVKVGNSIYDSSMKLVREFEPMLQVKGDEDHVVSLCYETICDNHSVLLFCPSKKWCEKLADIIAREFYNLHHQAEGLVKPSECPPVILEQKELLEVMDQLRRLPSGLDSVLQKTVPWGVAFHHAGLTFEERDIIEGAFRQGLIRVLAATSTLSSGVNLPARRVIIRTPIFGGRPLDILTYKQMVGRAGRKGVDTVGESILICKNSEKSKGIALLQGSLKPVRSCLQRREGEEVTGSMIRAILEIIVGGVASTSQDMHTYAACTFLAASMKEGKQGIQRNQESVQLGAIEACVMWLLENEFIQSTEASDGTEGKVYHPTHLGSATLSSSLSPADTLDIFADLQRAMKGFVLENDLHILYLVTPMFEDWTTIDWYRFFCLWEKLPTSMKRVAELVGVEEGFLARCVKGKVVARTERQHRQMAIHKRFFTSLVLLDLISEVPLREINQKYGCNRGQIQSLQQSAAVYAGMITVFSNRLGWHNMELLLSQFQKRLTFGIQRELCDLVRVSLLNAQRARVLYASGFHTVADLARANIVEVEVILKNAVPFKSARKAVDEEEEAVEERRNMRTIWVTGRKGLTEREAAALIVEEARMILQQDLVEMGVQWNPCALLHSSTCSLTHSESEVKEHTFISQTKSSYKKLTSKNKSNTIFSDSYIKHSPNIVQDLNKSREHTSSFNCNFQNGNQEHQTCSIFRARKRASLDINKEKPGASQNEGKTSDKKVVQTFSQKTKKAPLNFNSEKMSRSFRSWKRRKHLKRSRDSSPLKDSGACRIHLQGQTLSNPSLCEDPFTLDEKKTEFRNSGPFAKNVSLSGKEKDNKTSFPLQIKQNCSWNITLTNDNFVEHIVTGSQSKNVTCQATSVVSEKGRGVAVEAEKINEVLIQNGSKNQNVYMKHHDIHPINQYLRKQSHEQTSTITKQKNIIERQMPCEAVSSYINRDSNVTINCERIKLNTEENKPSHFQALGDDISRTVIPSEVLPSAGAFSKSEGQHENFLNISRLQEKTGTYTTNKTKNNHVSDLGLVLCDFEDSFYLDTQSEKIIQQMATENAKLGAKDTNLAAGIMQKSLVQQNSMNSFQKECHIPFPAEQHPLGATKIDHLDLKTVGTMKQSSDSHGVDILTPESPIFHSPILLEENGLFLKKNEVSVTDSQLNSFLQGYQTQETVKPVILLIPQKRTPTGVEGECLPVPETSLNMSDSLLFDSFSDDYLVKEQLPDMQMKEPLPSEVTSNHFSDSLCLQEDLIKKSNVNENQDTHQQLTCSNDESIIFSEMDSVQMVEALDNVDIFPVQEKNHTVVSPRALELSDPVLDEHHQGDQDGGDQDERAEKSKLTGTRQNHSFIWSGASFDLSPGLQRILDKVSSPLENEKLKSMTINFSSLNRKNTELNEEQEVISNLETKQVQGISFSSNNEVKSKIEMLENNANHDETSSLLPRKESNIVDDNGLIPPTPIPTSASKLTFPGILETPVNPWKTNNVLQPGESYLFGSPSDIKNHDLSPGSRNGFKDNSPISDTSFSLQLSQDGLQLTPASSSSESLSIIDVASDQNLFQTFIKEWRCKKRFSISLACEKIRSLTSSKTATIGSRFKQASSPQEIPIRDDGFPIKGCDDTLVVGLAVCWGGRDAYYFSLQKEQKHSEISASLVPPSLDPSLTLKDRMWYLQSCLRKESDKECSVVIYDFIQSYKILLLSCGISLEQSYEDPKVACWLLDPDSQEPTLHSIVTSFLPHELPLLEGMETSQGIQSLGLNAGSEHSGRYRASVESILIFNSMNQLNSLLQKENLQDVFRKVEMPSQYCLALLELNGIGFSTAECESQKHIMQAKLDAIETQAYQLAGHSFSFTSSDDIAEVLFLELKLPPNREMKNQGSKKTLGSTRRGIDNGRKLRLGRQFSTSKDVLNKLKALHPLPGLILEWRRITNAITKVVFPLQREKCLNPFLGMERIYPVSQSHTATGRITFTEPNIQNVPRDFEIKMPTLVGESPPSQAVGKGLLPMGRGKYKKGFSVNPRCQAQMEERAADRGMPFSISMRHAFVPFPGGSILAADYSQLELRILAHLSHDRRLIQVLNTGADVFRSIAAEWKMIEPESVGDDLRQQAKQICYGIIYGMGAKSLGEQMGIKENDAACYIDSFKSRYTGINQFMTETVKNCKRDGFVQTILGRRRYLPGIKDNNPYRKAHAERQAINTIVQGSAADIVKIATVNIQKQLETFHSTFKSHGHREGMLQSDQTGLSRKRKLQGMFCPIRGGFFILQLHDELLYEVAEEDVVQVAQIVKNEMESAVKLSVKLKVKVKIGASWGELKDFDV
The remaining activity of `CC(C)CN(C[C@@H](O)[C@H](Cc1ccccc1)NC(=O)O[C@H]1CCOC1)S(=O)(=O)c1ccc(N)cc1` is reported as 101%.
The remaining activity of `O=C(O)C1CCCN(CCC=C(c2ccccc2)c2ccccc2)C1` (stereo not shown) is reported as 96.3%.
For `CC#CC(=O)Nc1cc2c(Nc3ccc(F)c(Cl)c3)ncnc2cn1`, the remaining activity was 116%.
With `CCCSc1nc(N[C@@H]2C[C@H]2c2ccc(F)c(F)c2)c2nnn([C@@H]3C[C@H](OCCO)[C@@H](O)[C@H]3O)c2n1` the remaining activity was 101%.
The remaining activity of `CO[C@H]1C[C@H](O[C@H]2[C@H](C)[C@@H](O[C@@H]3O[C@H](C)C[C@H](N(C)C)[C@H]3O)[C@@H](C)C[C@@]3(CO3)C(=O)[C@H](C)[C@@H](O)[C@@H](C)[C@@H](C)OC(=O)[C@@H]2C)O[C@@H](C)[C@@H]1O` is reported as 87.5%.
For `CC1(C)O[C@@H]2C[C@H]3[C@@H]4CCC5=CC(=O)CC[C@]5(C)[C@@]4(F)[C@@H](O)C[C@]3(C)[C@]2(C(=O)CCl)O1`, the remaining activity was 85.9% and 110%.
With `CN1CCN(C(c2ccccc2)c2ccc(Cl)cc2)CC1` (stereo not shown) the remaining activity was 100%.
`O=C(CCCN1CCC(O)(c2ccc(Br)cc2)CC1)c1ccc(F)cc1` has a remaining activity of 101%.
The remaining activity of `CCC(=O)c1ccc2c(c1)N(CCCN(C)C)c1ccccc1S2` is reported as 102%.
`O=C1C(O)=C([C@H]2CC[C@H](c3ccc(Cl)cc3)CC2)C(=O)c2ccccc21` has a remaining activity of 87.7% and 94.8%.
With `O=C(O)C1=CC(=C(c2ccc(O)c(C(=O)O)c2)c2ccc(O)c(C(=O)O)c2)C=CC1=O` the remaining activity was 5.88%.

Excerpt of the above (series 1):
`COc1cc2c(Nc3ccc(Br)cc3F)ncnc2cc1OCC1CCN(C)CC1` gave a remaining activity of 100%.
The remaining activity of `COc1cc2c(N3CCN(C(=O)Nc4ccc(OC(C)C)cc4)CC3)ncnc2cc1OCCCN1CCCCC1` is reported as 97.4%.
With `C[C@@H](N)[C@H]1CC[C@H](C(=O)Nc2ccncc2)CC1` the remaining activity was 103%.
`O=Nc1c(-c2c(O)[nH]c3ccccc23)[nH]c2ccccc12` gave a remaining activity of 99.8%.
`O=C1c2ccccc2-c2nc3nnnn3nc21` has a remaining activity of 143%.
For `N#CC(c1ccnc(NCCc2cccnc2)n1)c1nc2ccccc2s1` (stereo not shown), the remaining activity was 106%.
For `N#C/C(=C(/N)SC1C=CC=CC1)c1cccc(C(O)c2ccncc2)c1` (stereo not shown), the remaining activity was 110%.
For `Clc1ccc(Nc2nnc(Cc3ccncc3)c3ccccc23)cc1`, the remaining activity was 96.3%.
`CCCCc1c(-c2ccc(O)cc2)[nH]c2nccnc12` gave a remaining activity of 117%.
